Measured values collected from several papers.
Each line is one published result; not all experiments were run side by side.
Cell line: MDA-MB-231

| SMILES | effect on | mode | technique | time | setting | IC50 |
| --- | --- | --- | --- | --- | --- | --- |
| N=C(N)NCCC[C@H](NC(=O)[C@H](CCCNC(=N)N)NC(=O)[C@@H]1CCCN1C(=O)[C@H](CCCNC(=N)N)NC(=O)[C@H](CCCNC(=N)N)NC(=O)[C@H](CCCNC(=N)N)NC(=O)[C@H](Cc1c[nH]c2ccccc12)NC(=O)[C@H](CCCNC(=N)N)NC(=O)[C@H](CCCNC(=N)N)NC(=O)[C@H](CCCNC(=N)N)NC(=O)[C@H](CCCNC(=N)N)NC(=O)[C@H](CCCNC(=N)N)NC(=O)[C@H](Cc1c[nH]c2ccccc12)NC(=O)[C@H](CCCNC(=N)N)NC(=O)[C@H](CCCNC(=N)N)NC(=O)[C@H](Cc1ccc(O)cc1)NC(=O)[C@H](CCCNC(=N)N)NC(=O)[C@H](CCCNC(=N)N)NC(=O)[C@H](CCCNC(=N)N)NC(=O)[C@@H](N)Cc1c[nH]c2ccccc12)C(N)=O | cell growth or viability | – | MTT | 24 h | serum-free | 5.2 µM |
| C[C@@H](N)[C@H](O)CCCCCCCC(=O)CCCCCCCCCCCCCC[C@@H](O[C@@H]1O[C@H](CO)[C@@H](O)[C@H](O)[C@H]1O)[C@@H](N)CO | cell growth or viability | – | resazurin | 96 h | – | 1.96 µM |
| Cc1nn(-c2ccccc2)c(O)c1C(c1cccc([N+](=O)[O-])c1)c1c(C)nn(-c2ccccc2)c1O | cell growth or viability | – | MTT | 48 h | – | 26.3 µM |
| CC(N)C(O)CCCCCCCCCCCCCCC(=O)CCCCCCCC(O)C(C)N (centres unmarked) | cell growth or viability | – | resazurin | 96 h | – | 93.2 µM |
| CC(C)c1cccc(C(C)C)c1-n1c[n+](-c2c(C(C)C)cccc2C(C)C)c2c1-c1cccc3cccc-2c13.[Cl][Pd-]([Cl])[CH2]C=Cc1ccccc1 | cell growth or viability | – | MTT | 72 h | – | 4 µM |
| CCc1ccc(C(c2c(C)nn(-c3ccccc3)c2O)c2c(C)nn(-c3ccccc3)c2O)cc1 | cell growth or viability | – | MTT | 48 h | – | 38.5 µM |
| C1=CCCC=CCC1.C1=CCCC=CCC1.[Cl][Hg-]([Cl])[Cl].[Cl][Hg-]([Cl])[Cl].[Pt+][c]1ccccc1P(=Nc1ccccc1)(c1ccccc1)c1ccccc1.[Pt+][c]1ccccc1P(=Nc1ccccc1)(c1ccccc1)c1ccccc1 | cell growth or viability | – | MTT | 24 h | – | 0.39 µM |
| N.N.O=C([O][Pt]([OH])([Cl])[Cl])c1ccc(P(c2ccccc2)c2ccccc2)cc1.[Cl][Au] | cell growth or viability | – | resazurin | 72 h | – | 7.07 µM |
| CCN(CC)C1=[S+][Au-]2([S]1)[c]1ccccc1-c1cccc[c]12 | cell growth or viability | – | MTT | 72 h | – | > 100 µM |
| CC12CC(O)C3C(CCC4(O)CC(O)CC(O)C34CO)C1(O)CCC2C1=CC(=O)OC1 (centres unmarked) | cell migration | inhibitor | – | – | – | 0.79 µM |
| Cc1nn(-c2ccccc2)c(O)c1C(c1cccs1)c1c(C)nn(-c2ccccc2)c1O | cell growth or viability | – | MTT | 48 h | – | 36.8 µM |
| COC(=O)C1CN1S(=O)(=O)c1c(C)cc(C)cc1C (centres unmarked) | cell growth or viability | – | MTT | 48 h | – | 13 µM |
| [N-]=[N+]=NCCN1C(=O)c2cccc3cccc(c23)C1=O | cell growth or viability | – | MTT | 24 h | – | > 100 µM |
| CC(=O)[C@@H]1CCCN1C(=O)[C@@H]1CCCN1C(=O)[C@H](Cc1ccccc1)NC(=O)[C@@H](NC(=O)[C@@H](NC(=O)[C@@H](NC(=O)[C@@H]1CCCN1C(=O)[C@H](C)NC(=O)OC(C)(C)C)C(C)C)C(C)C)C(C)C | cell growth or viability | – | SRB | – | – | 9 µM |
| Cc1nn(-c2ccccc2)c(O)c1C(c1ccccc1O)c1c(C)nn(-c2ccccc2)c1O | cell growth or viability | – | MTT | 48 h | – | 24.2 µM |
| C#CCCCC[C@H](C)C[C@@H](C)C(=O)N[C@@H](C)C(=O)N1CCC[C@H]1C(=O)N[C@H](C(=O)N[C@H](C(=O)N[C@H](C(=O)N[C@@H](Cc1ccccc1)C(=O)N1CCC[C@H]1C(=O)N1CCC[C@H]1C(C)=O)C(C)C)C(C)C)C(C)C | cell growth or viability | – | SRB | – | – | 7 µM |
| COC(=O)C1CN1S(=O)(=O)c1ccc(N)cc1 (centres unmarked) | cell growth or viability | – | MTT | 48 h | – | 64 µM |
| CCCCCCCCCCCCCC(=O)NCC(=O)N[C@@H](C)C(=O)N[C@@H](CC(C)C)C(=O)N[C@](C)(CC)C(=O)N[C@@H](C)C(=O)N[C@H](C(=O)N[C@H](CO)CC(C)C)[C@@H](C)CC | cell growth or viability | – | MTT | – | – | 6 µM |
| CCCCCCCCCCCCN(CCCCCCCCCCCC)C1=[S+][Au-]2([S]1)[c]1ccccc1-c1cccc[c]12 | cell growth or viability | – | MTT | 72 h | – | > 100 µM |
| C[C@H](NC(=O)[C@H](CCCNC(=N)N)NC(=O)[C@H](CCCNC(=N)N)NC(=O)[C@@H]1CCCN1C(=O)CNC(=O)[C@H](CCCNC(=N)N)NC(=O)[C@H](CCCNC(=N)N)NC(=O)CN)C(=O)N[C@@H](CC(N)=O)C(=O)N[C@@H](CCC(N)=O)C(=O)N[C@@H](CC(N)=O)C(=O)NCC(=O)N[C@H](C(=O)N[C@@H](CCCNC(=N)N)C(=O)N[C@@H](CCCNC(=N)N)C(=O)N[C@@H](CCCNC(=N)N)C(=O)N[C@@H](CCCNC(=N)N)C(=O)N[C@@H](CCCNC(=N)N)C(=O)N[C@@H](CCCNC(=N)N)C(=O)N[C@H](C(N)=O)[C@@H](C)O)[C@@H](C)O | cell viability | – | CellTiter-Blue | 24 h | serum-free medium | > 100 µM |

For quick reference, copied from above:
| SMILES | effect on | mode | technique | time | setting | IC50 |
| --- | --- | --- | --- | --- | --- | --- |
| Cc1nn(-c2ccccc2)c(O)c1C(c1cccc([N+](=O)[O-])c1)c1c(C)nn(-c2ccccc2)c1O | cell growth or viability | – | MTT | 48 h | – | 26.3 µM |
| C1=CCCC=CCC1.C1=CCCC=CCC1.[Cl][Hg-]([Cl])[Cl].[Cl][Hg-]([Cl])[Cl].[Pt+][c]1ccccc1P(=Nc1ccccc1)(c1ccccc1)c1ccccc1.[Pt+][c]1ccccc1P(=Nc1ccccc1)(c1ccccc1)c1ccccc1 | cell growth or viability | – | MTT | 24 h | – | 0.39 µM |
| N=C(N)NCCC[C@H](NC(=O)[C@H](CCCNC(=N)N)NC(=O)[C@@H]1CCCN1C(=O)[C@H](CCCNC(=N)N)NC(=O)[C@H](CCCNC(=N)N)NC(=O)[C@H](CCCNC(=N)N)NC(=O)[C@H](Cc1c[nH]c2ccccc12)NC(=O)[C@H](CCCNC(=N)N)NC(=O)[C@H](CCCNC(=N)N)NC(=O)[C@H](CCCNC(=N)N)NC(=O)[C@H](CCCNC(=N)N)NC(=O)[C@H](CCCNC(=N)N)NC(=O)[C@H](Cc1c[nH]c2ccccc12)NC(=O)[C@H](CCCNC(=N)N)NC(=O)[C@H](CCCNC(=N)N)NC(=O)[C@H](Cc1ccc(O)cc1)NC(=O)[C@H](CCCNC(=N)N)NC(=O)[C@H](CCCNC(=N)N)NC(=O)[C@H](CCCNC(=N)N)NC(=O)[C@@H](N)Cc1c[nH]c2ccccc12)C(N)=O | cell growth or viability | – | MTT | 24 h | serum-free | 5.2 µM |
